Measurements collected from several papers.
Each line is one published result; not all experiments were run side by side. Several values in a cell are separate wells, animals, samples, runs or records. ± gives the spread as reported.
Sequence of UniProt P15170 (whole entry, looked up): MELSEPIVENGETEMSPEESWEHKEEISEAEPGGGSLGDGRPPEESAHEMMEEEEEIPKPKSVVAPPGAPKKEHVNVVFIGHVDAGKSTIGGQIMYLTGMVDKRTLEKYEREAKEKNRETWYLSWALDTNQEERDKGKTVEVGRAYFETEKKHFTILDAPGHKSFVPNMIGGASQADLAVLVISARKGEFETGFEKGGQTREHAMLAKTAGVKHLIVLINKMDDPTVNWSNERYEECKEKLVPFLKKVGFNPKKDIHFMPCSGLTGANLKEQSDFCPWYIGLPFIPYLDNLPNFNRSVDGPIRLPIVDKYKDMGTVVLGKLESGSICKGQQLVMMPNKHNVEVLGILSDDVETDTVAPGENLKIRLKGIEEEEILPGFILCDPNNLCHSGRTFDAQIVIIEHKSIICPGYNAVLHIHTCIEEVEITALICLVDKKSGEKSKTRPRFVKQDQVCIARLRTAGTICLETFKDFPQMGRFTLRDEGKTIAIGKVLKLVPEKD
Sequence of UniProt Q96SW2 (whole entry, looked up): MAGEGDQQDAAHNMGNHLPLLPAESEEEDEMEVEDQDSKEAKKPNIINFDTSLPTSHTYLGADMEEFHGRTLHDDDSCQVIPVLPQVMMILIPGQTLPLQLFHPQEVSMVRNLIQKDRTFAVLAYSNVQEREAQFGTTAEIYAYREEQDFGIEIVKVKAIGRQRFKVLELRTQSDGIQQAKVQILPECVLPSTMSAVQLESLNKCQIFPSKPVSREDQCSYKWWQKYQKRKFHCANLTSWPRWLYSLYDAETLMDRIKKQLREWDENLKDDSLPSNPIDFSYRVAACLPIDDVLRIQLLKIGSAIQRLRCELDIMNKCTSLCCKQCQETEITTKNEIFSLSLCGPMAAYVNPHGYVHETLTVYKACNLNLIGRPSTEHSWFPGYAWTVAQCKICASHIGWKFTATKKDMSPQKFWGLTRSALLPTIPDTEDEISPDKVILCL

c1coc(-c2n[nH]cc2-c2ccnc3ccccc23)c1 — result for “log2 fold change”: -0.05 (TPK1 (Candida albicans); kinase binding, MIB/MS competition; Candida albicans lysate; 10 µM; reference: DMSO).
O=C(O)CC[C@H](NC(=O)N[C@@H](CCCCNC(=O)[C@H](Cc1ccc2ccccc2c1)NC(=O)CCCCCNC(=O)CN1CCN(CC(=O)O)CCN(CC(=O)O)CCN(CC(=O)O)CC1)C(=O)O)C(=O)O [gallium-68 labelled] has a tissue uptake of 6.14 ± 1.54 %ID/g (gamma counting; mouse, 22Rv1 xenograft, liver; intravenous, 3.7 MBq, 2 h).
COc1cc(/C=C/C(=O)CC(=O)/C=C/c2ccc(O)c(OC)c2)ccc1O has an activity score of 4.4 (human iPSC-derived cardiomyocytes; MyBP-C/MYH ratio, plate-normalised SD score; concentration not given, primary screen; direction not given).
CC(C)C[C@H](NC(=O)C[C@H](O)[C@H](CC(C)C)NC(=O)[C@H](Cc1c[nH]cn1)NC(=O)CNC(=O)[C@@H](NC(=O)[C@H](C)NC(=O)[C@H](Cc1c[nH]c2ccccc12)NC(=O)[C@H](CCC(N)=O)NC(=O)[C@@H](Cc1ccccc1)NC(=O)COCCOCCNC(=O)CCC(C(=O)O)N1CCN(CC(=O)O)CCN(CC(=O)O)CCN(CC(=O)O)CC1)C(C)C)C(N)=O (stereo partly shown) [lutetium-177 labelled] gave a tissue uptake of 12 ± 3 %ID/g (BALB/c nu/nu mice, female, tumor; 50 pmol, 1 h, added: PBS co-injection).
CCS(=O)(=O)c1nc(C2CC2)cc(C(F)(F)F)n1 — result for “cells with nuclear SREBP1”: 90.5% and 86.3% and 87.4% and 86.8% (importin beta-1; SREBP1 nuclear import, high content imaging; HeLa Kyoto; 1.58 µM, 3 h, added: glucose and MG132).
With CN(C)CCC=C1c2ccccc2CCc2ccccc21 the activity score was 3.3 (human iPSC-derived cardiomyocytes; MyBP-C/MYH ratio, plate-normalised SD score; concentration not given, primary screen; direction not given).
For NCc1cc2c(cc1F)C(=O)N(C1CCC(=O)NC1=O)C2 (stereo not shown), the DC50 was under 0.01 µM (GSPT1/CRBN (Homo sapiens, UniProt P15170+Q96SW2); degrader, Western blot; Hep3B; 6 h).
With FC(F)(F)C(Cl)Br (stereo not shown) the activity score was 3.3 (human iPSC-derived cardiomyocytes; MyBP-C/MYH ratio, plate-normalised SD score; concentration not given, primary screen; direction not given).
N#Cc1ccc2c(c1)[C@H]1CCCN(C(=O)c3ccc4[nH]cnc4c3)[C@H]1C2 — result for “change from baseline”: 7.2 mg/dL (measured: FPG; human; 80 mg once daily, day 28, adjusted mean; reference: placebo).
CC(C)[C@H](NC(=O)[C@H](Cc1ccc(O)cc1)NC(=O)[C@H](Cc1ccc(O)cc1)NC(=O)[C@@H]1CCCN1C(=O)[C@H](CCC(=O)O)NC(=O)[C@H](CCC(=O)O)NC(=O)[C@H](Cc1c[nH]c2ccccc12)NC(=O)[C@@H]1CCCN1C(=O)[C@@H](NC(=O)[C@H](CCC(N)=O)NC(=O)c1ccc2c(c1)C(=O)OC21c2ccc(O)cc2Oc2cc(O)ccc21)C(C)C)C(=O)N[C@H](C(=O)N[C@@H](CCCCN)C(=O)N[C@@H](CCCCN)C(=O)N[C@@H](CO)C(=O)N[C@@H](CO)C(=O)NCC(=O)NCC(N)=O)C(C)C has a plasma concentration of 21200 ng/mL and 11900 ng/mL (human, plasma; intravenous infusion, 400 mg, 0.25 h after infusion start).
Cn1cc(-c2ccc(-c3cncc(Cl)c3N3CCC4(CCNC4=O)CC3)cc2)cn1 — result for “log2 fold change”: -2.18 (COLO 205; gene expression, microarray, measured: TGFB3 mRNA; concentration not given, 6 h; reference: untreated cells).
With CCN(CC)CCOC(=O)c1ccc(N)cc1 the activity score was -3.6 (human iPSC-derived cardiomyocytes; MyBP-C/MYH ratio, plate-normalised SD score; concentration not given, primary screen; direction not given).
For Oc1ccccc1-c1n[nH]cc1-c1ccnc2ccccc12, “log2 fold change” read 0.54 (TPK1 (Candida albicans); kinase binding, MIB/MS competition; Candida albicans lysate; 10 µM; reference: DMSO).
CCn1cc(-c2cc(Cn3ccoc3=N)cc3c2CCN([C@@H](C)c2cc(OC)ccn2)C3=O)c(C(F)(F)F)n1 gave an EC50 of 3.14 µM (COLO 320; cell growth, inhibitor; 120 h).
Under “cells with nuclear SREBP1”, CC(Nc1nc(N2CCCC2)nc2ccccc12)c1ccccc1 (stereo not shown) is recorded as 84.3% and 82.9% and 87.6% and 85.2% (importin beta-1; SREBP1 nuclear import, high content imaging; HeLa Kyoto; 15.82 µM, 3 h, added: glucose and MG132).
C[C@H]1C[C@H]2CSC(N)=N[C@@]2(c2nc(NC(=O)c3ccc(OC(F)F)cn3)cs2)CO1 — result for “percent change from baseline”: -45.8% (measured: total Aβ; healthy adults, plasma; 160 mg single dose, 4 h post-dose; reference: placebo).
The EC50 of CCn1cc(-c2cc(Cn3ccnc3)cc3c2CCN([C@H](c2cc(OC)ccn2)C2CC2)C3=O)c(C(F)(F)F)n1 is reported as over 30 µM (LS-411N; cell growth, inhibitor; 120 h).
The sarcomere length of O=C(O)CNC(=O)Cc1ccccc1 is reported as 1.64 µm (ventricular cardiomyocytes, C57BL/6 mouse; dose not given, 0.576 s).
The MyBP-C level of COC1=C2C[C@@H](C)C[C@H](OC)[C@H](O)[C@@H](C)/C=C(\C)[C@H](OC(N)=O)[C@@H](OC)/C=C\C=C(/C)C(=O)NC(=CC1=O)C2=O is reported as 3% (MYBPC3 iPSC cardiomyocytes; plate-normalised; concentration not given, 24 h, hit retest).
OC(CCN1CCCCC1)(c1ccccc1)C1CC2C=CC1C2 (stereo not shown): “change in EEG Alpha2-power Pz-O2” 22.1% (resting-state EEG; healthy elderly humans; oral, 2 mg, eyes open, LS mean; reference: baseline).
COc1cnc2cccc(N3CCc4c(cc(Cn5ccnc5C)cc4-c4cn(C)nc4C(F)(F)F)C3=O)c2c1 gave an EC50 of over 30 µM (SNU-182; cell growth, inhibitor; 120 h).
For N=C(N)NCCC[C@@H](NC(=O)CCOCCOCCNC(=O)[C@H](CCCCNC(=O)CC[C@H](NC(=O)c1ccc(NCc2cnc3nc(N)[nH]c(=O)c3n2)cc1)C(=O)O)NC(=O)CO/N=C/[C@H](F)[C@@H](O)[C@H](O)[C@H](O)CO)C(=O)NCC(=O)N[C@H](CC(=O)O)C(N)=O [fluorine-18 labelled], the intestinal radioactivity was at most 1.6 %ID/g (female nude mice, MDA-MB-231 xenograft, intestine without contents; dose not given, 45 min to 2.5 h).
For CC(C)[C@H](NC(=O)[C@@H](NC(=O)CCCc1cn(CC(O)CN2CCN(CC(=O)O)CCN(CC(=O)O)CCN(CC(=O)O)CC2)nn1)[C@@H](C)O)C(=O)N[C@@H](CCCNC(=N)N)C(=O)N[C@H](C(=O)N[C@@H](CO)C(=O)N[C@@H](C)C(=O)N[C@@H](CC(=O)O)C(=O)O)[C@@H](C)O (stereo partly shown), the AUC(0-t) was 1950 ± 322 µg·h/mL (healthy male humans, plasma; intravenous bolus, 0.08 mmol/kg, 0 h).
The activity score of C=CCCCCCCCCCCCC(O)CC(O)COC(C)=O (stereo not shown) is reported as 6.6 (human iPSC-derived cardiomyocytes; MyBP-C/MYH ratio, plate-normalised SD score; concentration not given, primary screen; direction not given).
The tissue uptake of CC(C)C[C@H](NC(=O)C[C@H](O)[C@H](CC(C)C)NC(=O)[C@H](Cc1c[nH]cn1)NC(=O)CNC(=O)[C@@H](NC(=O)[C@H](C)NC(=O)[C@H](Cc1c[nH]c2ccccc12)NC(=O)[C@H](CCC(N)=O)NC(=O)[C@@H](Cc1ccccc1)NC(=O)COCCOCCNC(=O)CN1CCN(CC(=O)O)CCN(CC(=O)O)CCN(CC(=O)O)CC1)C(C)C)C(N)=O [lutetium-177 labelled] is reported as 1.5 ± 0.7 %ID/g (female BALB/c nu/nu mice, intestines; intravenous, 50 pmol, 1 h).

Some of these lines once more:
The sarcomere length of O=C(O)CNC(=O)Cc1ccccc1 is reported as 1.64 µm (ventricular cardiomyocytes, C57BL/6 mouse; dose not given, 0.576 s).
The MyBP-C level of COC1=C2C[C@@H](C)C[C@H](OC)[C@H](O)[C@@H](C)/C=C(\C)[C@H](OC(N)=O)[C@@H](OC)/C=C\C=C(/C)C(=O)NC(=CC1=O)C2=O is reported as 3% (MYBPC3 iPSC cardiomyocytes; plate-normalised; concentration not given, 24 h, hit retest).
